Measured values gathered from unrelated publications.
Several values in a cell are separate wells, animals, samples, runs or records.
Target: Serine/threonine-protein kinase Nek9 (NEK9, Homo sapiens, UniProt Q8TD19)

C=CC(=O)Nc1cccc(-c2cnc3[nH]cc(C(=O)NC(C)(C)C)c3n2)c1
inhibition (kinase activity; 0.1 µM): 28% and 27%

C=CC(=O)N1CCCC(n2c(=O)c3ncccc3n(Cc3ccc(Oc4ccccc4)cc3)c2=O)C1 (centres unmarked)
remaining binding (cell-free assay, competition with immobilised ligand; 1 µM): 97%

CN1CC[C@@H](COc2cnc(C#N)cc2-c2ccn3nc(NC(=O)C4CC4)cc3c2)C1
inhibition (enzyme activity, inhibitor; 1 µM): 5%

CNC(=O)C1CCN(c2cc(C)c(F)cc2NC(=O)c2ccc(-c3cc(O)ccc3C)c(C)c2)CC1
remaining binding (binding, competition with immobilised ligand; 1 µM): 100%

O=C(Cc1ccc(OCc2ccccc2)cc1)NC1(C(=O)O)CCN(C(=O)c2ccc(-c3cccc(Cl)c3)cc2)CC1
activity vs control (enzyme activity, inhibitor; 10 µM): 68%

CN1C[C@@H](c2c[nH]c3cc(Br)ccc23)NC[C@@H]1c1c[nH]c2cc(Br)ccc12
remaining activity (enzyme activity, inhibitor; 10 µM): 102%

COc1cc(Nc2nc(C)cc(-c3cnn4nc(OC)ccc34)n2)cc(C(F)(F)F)c1
remaining activity (inhibitor; 1 µM; reference: control): 94%

NC(=O)C[C@H]1CCc2sc3ncnc(O[C@H]4CC[C@H](N5CCOCC5)CC4)c3c21
inhibition (enzyme activity, inhibitor; 10 µM): 1%

C=CC(=O)N1Cc2nc(-c3cc(-c4cc(Cl)cnc4Cl)c(F)cc3F)n(-c3ccncn3)c2C1
inhibition (cell-free assay, inhibitor; 1 µM): 0%

CN1CCN(Cc2ccc(-c3ccc(CO[C@H]4CCC[C@@H]4NC(=O)c4cc(-c5cnn(C)c5)cnc4N)cc3)cc2)CC1
inhibition (enzyme activity, inhibitor; 0.1 µM): 3%

CCn1cc(C(=O)O)c(=O)c2c(N)c(F)c(NC3CCCCC3)cc21
inhibition (kinase activity; 0.1 µM, added: ATP at Km): -0.3%

Cc1cccc(O[C@H]2CCC[C@@H](C(C)CNCc3ccncc3)C2)c1 (relative stereo)
inhibition (enzyme activity, inhibitor; 1 µM): 1%

Cc1ccc(-c2c(/C=C(\C#N)C(=O)NC(C)C)n(CCCO)c3ncnc(N)c23)cc1
remaining binding (cell-free assay, competition with immobilised ligand; 1 µM): 100%

CNC(=O)C[C@H](Cc1ccc(C#N)cc1)NC(=O)c1cc(-c2ccc(CN[C@H](C)c3ccc(C)cc3)o2)ccc1Cl
activity vs control (enzyme activity, inhibitor; 1 µM): 117%

A few entries again:
NC(=O)C[C@H]1CCc2sc3ncnc(O[C@H]4CC[C@H](N5CCOCC5)CC4)c3c21
inhibition (enzyme activity, inhibitor; 10 µM): 1%

C=CC(=O)Nc1cccc(-c2cnc3[nH]cc(C(=O)NC(C)(C)C)c3n2)c1
inhibition (kinase activity; 0.1 µM): 28% and 27%
